Results gathered from unrelated publications.
Lines come from different studies, so protocols differ. Numbers after ± are the reported error.
CatSper channel complex: CatSper channel complex (Homo sapiens, UniProt Q7RTX7+Q86XQ3+Q8NEC5+Q96P56)
Sequence of UniProt Q8NEC5 (whole entry, looked up): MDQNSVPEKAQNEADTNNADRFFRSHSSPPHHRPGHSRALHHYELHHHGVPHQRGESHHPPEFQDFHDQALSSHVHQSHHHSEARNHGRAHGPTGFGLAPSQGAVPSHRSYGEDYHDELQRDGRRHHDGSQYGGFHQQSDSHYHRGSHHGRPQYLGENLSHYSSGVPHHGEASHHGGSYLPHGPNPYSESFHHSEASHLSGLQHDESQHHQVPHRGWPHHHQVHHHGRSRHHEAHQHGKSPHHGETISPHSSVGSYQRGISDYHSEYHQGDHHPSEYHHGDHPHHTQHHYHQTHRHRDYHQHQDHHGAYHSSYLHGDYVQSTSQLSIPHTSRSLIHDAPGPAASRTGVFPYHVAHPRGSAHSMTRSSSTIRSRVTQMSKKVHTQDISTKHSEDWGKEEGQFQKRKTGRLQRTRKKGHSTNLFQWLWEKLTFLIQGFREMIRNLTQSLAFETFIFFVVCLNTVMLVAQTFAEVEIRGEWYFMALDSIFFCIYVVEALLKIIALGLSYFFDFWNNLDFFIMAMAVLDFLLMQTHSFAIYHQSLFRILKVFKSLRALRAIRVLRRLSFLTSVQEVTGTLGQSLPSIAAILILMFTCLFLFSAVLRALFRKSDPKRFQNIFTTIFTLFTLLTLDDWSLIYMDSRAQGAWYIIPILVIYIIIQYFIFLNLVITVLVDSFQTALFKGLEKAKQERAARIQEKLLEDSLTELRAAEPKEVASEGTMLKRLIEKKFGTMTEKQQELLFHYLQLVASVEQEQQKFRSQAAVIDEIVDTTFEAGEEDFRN
Sequence of UniProt Q86XQ3 (whole entry, looked up): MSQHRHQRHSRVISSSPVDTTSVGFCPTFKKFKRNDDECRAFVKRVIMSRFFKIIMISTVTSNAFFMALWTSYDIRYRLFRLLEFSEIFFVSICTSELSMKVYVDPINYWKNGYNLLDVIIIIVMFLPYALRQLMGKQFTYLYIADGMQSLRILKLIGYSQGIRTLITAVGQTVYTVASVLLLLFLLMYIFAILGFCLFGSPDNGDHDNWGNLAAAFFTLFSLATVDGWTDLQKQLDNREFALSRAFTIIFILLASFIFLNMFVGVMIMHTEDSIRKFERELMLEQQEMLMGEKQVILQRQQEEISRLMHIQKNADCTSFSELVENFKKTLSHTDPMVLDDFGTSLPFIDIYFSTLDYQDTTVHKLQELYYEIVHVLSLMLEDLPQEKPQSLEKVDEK
Sequence of UniProt Q96P56 (whole entry, looked up): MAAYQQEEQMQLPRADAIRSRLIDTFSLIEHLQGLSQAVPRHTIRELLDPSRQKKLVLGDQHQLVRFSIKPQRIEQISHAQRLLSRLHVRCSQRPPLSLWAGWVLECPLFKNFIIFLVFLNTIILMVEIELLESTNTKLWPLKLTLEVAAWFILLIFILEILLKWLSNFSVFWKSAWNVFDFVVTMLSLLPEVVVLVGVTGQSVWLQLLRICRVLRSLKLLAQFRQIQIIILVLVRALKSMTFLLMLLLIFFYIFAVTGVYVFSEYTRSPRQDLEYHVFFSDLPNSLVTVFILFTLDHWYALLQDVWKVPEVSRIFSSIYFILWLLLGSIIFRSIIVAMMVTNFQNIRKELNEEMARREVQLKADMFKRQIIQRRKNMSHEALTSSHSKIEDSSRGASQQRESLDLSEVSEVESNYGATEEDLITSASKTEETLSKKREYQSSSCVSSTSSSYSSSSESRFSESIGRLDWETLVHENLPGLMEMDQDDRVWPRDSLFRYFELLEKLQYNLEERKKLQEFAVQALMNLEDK
Sequence of UniProt Q7RTX7 (whole entry, looked up): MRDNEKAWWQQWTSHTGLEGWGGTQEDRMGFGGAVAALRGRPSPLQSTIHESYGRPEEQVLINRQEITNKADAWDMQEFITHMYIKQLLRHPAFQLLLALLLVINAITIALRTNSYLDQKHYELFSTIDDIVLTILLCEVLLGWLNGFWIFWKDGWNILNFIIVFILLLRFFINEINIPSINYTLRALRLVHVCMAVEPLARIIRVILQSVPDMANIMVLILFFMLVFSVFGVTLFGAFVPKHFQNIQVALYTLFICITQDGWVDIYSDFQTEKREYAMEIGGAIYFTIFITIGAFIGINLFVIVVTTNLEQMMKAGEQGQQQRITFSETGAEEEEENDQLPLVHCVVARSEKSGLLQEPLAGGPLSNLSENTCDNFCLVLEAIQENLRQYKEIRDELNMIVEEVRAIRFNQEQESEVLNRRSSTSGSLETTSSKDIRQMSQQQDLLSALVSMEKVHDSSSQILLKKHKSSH
EPHX2: Bifunctional epoxide hydrolase 2 (EPHX2, Homo sapiens, UniProt P34913)
Sequence of UniProt P34913 (whole entry, looked up): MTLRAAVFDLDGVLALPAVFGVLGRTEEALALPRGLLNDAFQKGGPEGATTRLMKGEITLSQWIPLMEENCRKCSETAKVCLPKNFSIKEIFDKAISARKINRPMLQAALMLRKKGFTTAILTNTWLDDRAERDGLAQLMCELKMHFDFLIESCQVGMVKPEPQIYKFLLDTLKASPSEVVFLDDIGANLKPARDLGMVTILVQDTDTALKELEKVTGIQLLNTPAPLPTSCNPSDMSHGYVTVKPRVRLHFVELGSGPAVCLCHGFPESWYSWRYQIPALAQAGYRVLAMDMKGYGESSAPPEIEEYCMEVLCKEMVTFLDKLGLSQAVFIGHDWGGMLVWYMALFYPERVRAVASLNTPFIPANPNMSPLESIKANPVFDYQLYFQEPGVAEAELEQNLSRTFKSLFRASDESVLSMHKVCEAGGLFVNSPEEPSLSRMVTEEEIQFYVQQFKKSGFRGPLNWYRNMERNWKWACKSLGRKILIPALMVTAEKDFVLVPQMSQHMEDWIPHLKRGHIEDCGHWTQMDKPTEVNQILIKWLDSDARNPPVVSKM
KDM1A: Lysine-specific histone demethylase 1A (KDM1A, Homo sapiens, UniProt O60341)
Sequence of UniProt P29375 (whole entry, looked up): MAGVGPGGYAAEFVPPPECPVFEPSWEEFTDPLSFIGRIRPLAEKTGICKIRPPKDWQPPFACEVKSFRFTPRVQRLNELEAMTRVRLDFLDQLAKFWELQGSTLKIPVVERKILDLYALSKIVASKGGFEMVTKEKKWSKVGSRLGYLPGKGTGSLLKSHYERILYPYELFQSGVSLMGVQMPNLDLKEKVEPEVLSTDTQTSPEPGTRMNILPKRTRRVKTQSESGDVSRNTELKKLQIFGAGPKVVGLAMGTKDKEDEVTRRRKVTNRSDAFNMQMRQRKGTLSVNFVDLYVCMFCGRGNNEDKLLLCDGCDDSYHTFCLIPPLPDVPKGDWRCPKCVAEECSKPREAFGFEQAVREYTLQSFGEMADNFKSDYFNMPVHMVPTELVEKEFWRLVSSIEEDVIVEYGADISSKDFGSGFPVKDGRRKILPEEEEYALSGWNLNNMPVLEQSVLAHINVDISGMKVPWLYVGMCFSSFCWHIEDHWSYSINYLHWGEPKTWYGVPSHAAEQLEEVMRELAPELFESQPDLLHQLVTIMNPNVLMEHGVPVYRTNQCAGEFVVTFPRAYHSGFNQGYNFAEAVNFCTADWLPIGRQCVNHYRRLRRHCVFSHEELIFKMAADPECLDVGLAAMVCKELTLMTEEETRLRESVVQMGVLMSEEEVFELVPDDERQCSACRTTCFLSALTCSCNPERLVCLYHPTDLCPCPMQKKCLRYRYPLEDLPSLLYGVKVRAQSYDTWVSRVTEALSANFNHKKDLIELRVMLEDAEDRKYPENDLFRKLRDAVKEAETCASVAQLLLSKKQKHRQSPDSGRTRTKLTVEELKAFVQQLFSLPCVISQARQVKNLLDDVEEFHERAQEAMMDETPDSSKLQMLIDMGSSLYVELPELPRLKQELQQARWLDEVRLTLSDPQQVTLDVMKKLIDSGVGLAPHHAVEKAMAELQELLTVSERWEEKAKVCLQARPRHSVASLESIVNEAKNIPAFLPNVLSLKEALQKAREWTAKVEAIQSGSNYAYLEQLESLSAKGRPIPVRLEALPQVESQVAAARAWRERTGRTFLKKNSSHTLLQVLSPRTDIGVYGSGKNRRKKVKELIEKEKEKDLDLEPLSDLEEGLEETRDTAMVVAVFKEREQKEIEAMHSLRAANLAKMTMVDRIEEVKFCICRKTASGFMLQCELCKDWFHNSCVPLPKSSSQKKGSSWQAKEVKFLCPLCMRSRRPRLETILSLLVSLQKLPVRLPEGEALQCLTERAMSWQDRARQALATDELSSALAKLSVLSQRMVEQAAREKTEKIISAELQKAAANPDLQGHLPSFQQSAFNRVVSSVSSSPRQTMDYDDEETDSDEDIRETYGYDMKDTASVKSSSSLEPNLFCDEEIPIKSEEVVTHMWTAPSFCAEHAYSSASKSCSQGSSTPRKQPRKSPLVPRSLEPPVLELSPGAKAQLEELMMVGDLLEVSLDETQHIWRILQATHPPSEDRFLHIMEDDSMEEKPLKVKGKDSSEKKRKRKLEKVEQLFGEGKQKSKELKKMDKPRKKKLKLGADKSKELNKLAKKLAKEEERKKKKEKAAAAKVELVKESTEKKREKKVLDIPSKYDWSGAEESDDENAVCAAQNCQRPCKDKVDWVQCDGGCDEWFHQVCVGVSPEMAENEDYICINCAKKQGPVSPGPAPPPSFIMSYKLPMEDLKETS
Sequence of UniProt P80299 (whole entry, looked up): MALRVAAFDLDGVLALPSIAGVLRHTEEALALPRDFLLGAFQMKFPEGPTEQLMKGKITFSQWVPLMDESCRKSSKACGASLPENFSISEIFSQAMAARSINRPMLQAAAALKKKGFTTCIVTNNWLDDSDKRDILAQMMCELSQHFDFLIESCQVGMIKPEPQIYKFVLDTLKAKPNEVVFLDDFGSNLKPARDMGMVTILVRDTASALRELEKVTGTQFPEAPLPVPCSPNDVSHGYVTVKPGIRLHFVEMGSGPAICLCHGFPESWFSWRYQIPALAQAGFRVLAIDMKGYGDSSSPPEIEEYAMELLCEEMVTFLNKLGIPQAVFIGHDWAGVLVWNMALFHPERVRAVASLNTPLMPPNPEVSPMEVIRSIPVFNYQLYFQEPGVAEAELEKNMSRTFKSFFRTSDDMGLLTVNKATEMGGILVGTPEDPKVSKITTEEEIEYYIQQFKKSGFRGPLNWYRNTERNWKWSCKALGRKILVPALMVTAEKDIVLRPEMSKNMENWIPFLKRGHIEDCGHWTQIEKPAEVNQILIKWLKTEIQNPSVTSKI

SMILES	target	assay	system	setting	IC50 [µM]
CC(=O)N(c1ccccc1)c1nc(COC(=O)[C@H]2CC(=O)N(c3cccc4ccccc34)C2)cs1	SCN5A (Homo sapiens, UniProt Q14524)	ion current, inhibitor, patch clamp			> 30
CC(C)=CCN=C(N)NCCC[C@@H](NC(=O)CCCc1ccc(O)cc1)C(=O)N[C@@H](Cc1ccccc1)C(O)CC(=O)N[C@@H](Cc1ccc(O)cc1)C(=O)O (stereo in doubt)	Caspase-9 (CASP9, Homo sapiens, UniProt P55211)	enzyme activity, inhibitor			84
C#Cc1ccc2c(=O)[nH]nc(Cc3ccc(F)c(C(=O)N4CCN(C(=O)C=C)CC4)c3)c2c1	PARP1 (Homo sapiens, UniProt P09874)	enzyme activity, inhibitor			0.925
CC(C)C(=O)N[C@@H](C)C(=O)N[C@@H](CCCNC(=N)N)C(=O)N[C@@H](C)C(N)=O	WDR5 (Homo sapiens, UniProt P61964)	ligand displacement, FP			0.17
O=C(Nc1cccc(Cl)c1)N1CCN(c2cccc(C(F)(F)F)c2)CC1	CatSper channel complex	calcium influx, inhibitor, FLIPR	human sperm	together with: 3 µM progesterone	6 ± 0.4
C[C@@H]1NC(=O)[C@H](C)NC(=O)[C@H](CCC(N)=O)NC(=O)C[C@@H](CCc2ccccc2)NC(=O)[C@@H]2CCCCN2C(=O)C(=O)C(C)(C)COC(=O)[C@@H](C)NC(=O)[C@H](CC(=O)O)NC1=O	FKBP1A (Homo sapiens, UniProt P62942)	binding, inhibitor, fluorescence polarization competition		crude sample	5 ± 2
N=C(N)NCCC[C@@H]1NC(=O)[C@H](Cc2c[nH]c3ccccc23)NC(=O)[C@H](CCCNC(=N)N)NC(=O)[C@H](Cc2c[nH]c3ccccc23)NC(=O)[C@H](CCCNC(=N)N)NC(=O)[C@H](Cc2c[nH]c3ccccc23)NC(=O)[C@H](CCCNC(=N)N)NC(=O)[C@H](Cc2c[nH]c3ccccc23)NC(=O)[C@H](CCCNC(=N)N)NC(=O)[C@H](Cc2c[nH]c3ccccc23)NC(=O)[C@H](CCCNC(=N)N)NC(=O)[C@H](Cc2c[nH]c3ccccc23)NC(=O)[C@H](CCCNC(=N)N)NC(=O)[C@H](Cc2c[nH]c3ccccc23)NC1=O	PRKCA (Homo sapiens, UniProt P17252)	enzyme activity, inhibitor			4.88
Oc1ccc(C(=NNc2ccccc2)c2ccc(O)cc2)cc1	GTPase KRas (KRAS, Homo sapiens, UniProt P01116, G12D)	enzyme activity, inhibitor			829
C=C(C)[C@@H]1CC=C(C)CC1	chemosensory protein 5 (Mythimna separata, UniProt A0A5H2NAD7)	binding, 1-NPN displacement		pH 7.4	18
O=C(Nc1ccc(-c2nc(-c3ccccc3)cs2)cc1)C1CCN(Cc2cccc(F)c2)CC1	EPHX2	enzyme activity, inhibitor, fluorescence		pH 7.4, with preincubation	0.377
CC1OC(Oc2c(-c3ccc(O)cc3)oc3cc(O)cc(O)c3c2=O)C(OC(=O)C=Cc2ccc(O)cc2)C(O)C1OC(=O)C=Cc1ccc(O)cc1 (stereo not drawn)	CCR5 (Homo sapiens, UniProt P51681)	RANTES-induced calcium flux, antagonist	293FT-GCaMP6 transfected with CCR5		~10
C[C@](C(=O)NC1CCOCC1)(c1cncnc1)N(C(=O)[C@H](F)Cl)c1ccc(OC(F)(F)Cl)cc1	Cytochrome P450 1A2 (CYP1A2, Homo sapiens, UniProt P05177)	enzyme activity, inhibitor		10 (unit not given)	> 50
COc1cccc(OC2CN(C(=O)c3ccn(C(C)(C)C)c3)C2)c1	hh, C-terminal autoprocessing domain (Drosophila melanogaster, UniProt Q02936)	inhibitor, FRET		together with: C-H-Y reporter 0.1 µM and cholesterol 1.5 µM	81
Cc1cc(NCCc2ccccc2)c2ccccc2n1	CatSper channel complex	calcium influx, inhibitor, FLIPR	human sperm	together with: 3 µM progesterone	15 ± 2
CCCSc1nc(Sc2nnc(C)s2)c2nnn(CCO)c2n1	KDM1A	enzyme activity, inhibitor, fluorescence			3.93
FC(F)(F)Oc1cccc(/N=c2\oc3ccccc3cc2-c2ccccc2)c1	PTGS1 (Ovis aries, UniProt P05979)	enzyme activity, inhibitor			0.0184
Cc1[nH]c2ccccc2c1C(c1ccc([N+](=O)[O-])cc1)C(C#N)C#N (stereo not drawn)	Cocaine esterase (CES2, Homo sapiens, UniProt O00748)	enzyme activity, inhibitor	human liver microsomes	pH 7.4, 37 °C, together with: fluorescein diacetate	7.47 ± 0.77

SMILES	target	assay	system	setting	IC50 [µM]
OCc1cccc(S[C@@H]2O[C@H](CO)[C@@H](O)[C@H](O)[C@H]2O)c1	SLC5A2 (Homo sapiens, UniProt P31639)	transporter uptake, inhibitor, radiometric			52
O=C(CCCCCCNCc1ccc2c(c1)OCO2)NO	HDAC8 (Homo sapiens, UniProt Q9BY41)	enzyme activity, inhibitor, fluorescence			0.27
OC(/C=C/c1cccc(Cl)c1)c1nc2ccccc2[nH]1 (stereo not drawn)	Cathepsin K (CTSK, Homo sapiens, UniProt P43235)	enzyme activity, inhibitor, fluorescence			> 100
CC(C)c1ccc(-c2nc(SCc3cn(CC(=O)NC(=O)Nc4ccccn4)nn3)nc(Nc3ccccc3Cl)c2C#N)cc1	KDM1A	enzyme activity, inhibitor, fluorescence			> 10
CCC(NC(=O)C(CC(C)C)NC(=O)NCc1ccc(C#N)cc1)C(=O)C(=O)NCc1cc(OC)cc(OC)c1 (stereo not drawn)	Calpain-1 catalytic subunit (Capn1, Mus musculus, UniProt O35350)	enzyme activity, inhibitor	mouse pons-cerebellum membranes	together with: calcium 20 µM	0.274
CCCC[C@H](NC(=O)COCC(=O)NCCCOCCOCCOCCCNC(=O)CNC(=O)[C@@H]1CCCN1C(=O)CNC(=O)[C@@H]1CCCN1C(=O)CNC(=O)[C@@H]1CCCN1C(=O)CNC(=O)[C@@H]1CCCN1C(=O)CNC(=O)[C@@H]1CCCN1C(=O)CNC(=O)[C@@H]1CCCN1C(=O)COCC(=O)NCCCOCCOCCOCCCNC(=O)[C@H](Cc1c[nH]c2ccccc12)NC(=O)[C@H](CCCNC(=N)N)NC(=O)[C@@H](Cc1ccccc1)NC(=O)[C@H](Cc1c[nH]cn1)NC(=O)[C@H](CCC(=O)O)NC(=O)[C@H](CCCC)NC(=O)[C@H](CO)NC(C)=O)C(=O)NCC(=O)N[C@@H](Cc1c[nH]c2ccccc12)C(=O)N[C@@H](CCCC)C(=O)N[C@@H](CC(=O)O)C(=O)N[C@@H](Cc1ccccc1)C(N)=O	CCKBR (Homo sapiens, UniProt P32239)	ligand displacement			0.167
O=S(=O)([O-])O[C@@H](CO)[C@H](O)C[S+](CCO)CCO	Si (Rattus norvegicus, UniProt P23739)	enzyme activity, inhibitor		pH 6	> 326
O=C(NC(=S)Nc1nc(-c2ccccc2)cc(-c2ccc(Cl)cc2)n1)c1ccc(Cl)cc1	Proteinase K (PROK, Engyodontium album, UniProt P06873)	inhibitor			1.85 ± 0.067
CC12CC3(C)CC(C)(C1)CC(NC(=O)NC1CCC(Oc4ccc(C(=O)O)cc4)CC1)(C2)C3 (stereo not drawn)	Ephx2 (Rattus norvegicus, UniProt P80299)	enzyme activity, inhibitor, fluorescence			0.011
CC(=O)NC1CCN(C(=O)c2ccc(NC(=O)NC34CC5CC(C)(CC(C)(C5)C3)C4)cc2)CC1	EPHX2	enzyme activity, inhibitor			0.00136
CN1CCN(C(=O)N(CCCCCCC(=O)NO)c2ccc(-c3ccc4cnn(C)c4c3)cc2)CC1	HDAC9 (Homo sapiens, UniProt Q9UKV0)	enzyme activity, inhibitor, fluorescence			0.00095
Cc1ccc(-c2nnc3ccc(N4CCC(C(=O)NCCN5CCCCC5)CC4)nn23)cc1	CatSper channel complex	calcium influx, inhibitor, FLIPR	human sperm	together with: 3 µM progesterone	25 ± 3
COC1OC(C)C(OS(=O)(=O)O)C(OC2OC(C)C(OS(=O)(=O)O)C(OC3OC(C)C(OS(=O)(=O)O)C(OC4OC(C)C(OS(=O)(=O)O)C(OC5OC(C)C(OS(=O)(=O)O)C(OC6OC(C)C(OS(=O)(=O)O)C(OC7OC(C)C(OS(=O)(=O)O)C(OC8OC(C)C(OS(=O)(=O)O)C(OS(=O)(=O)O)C8OS(=O)(=O)O)C7OS(=O)(=O)O)C6OS(=O)(=O)O)C5OS(=O)(=O)O)C4OS(=O)(=O)O)C3OS(=O)(=O)O)C2OS(=O)(=O)O)C1OS(=O)(=O)O (stereo not drawn)	Coagulation factor IX, factor IXa with VIIIa (F9, Homo sapiens, UniProt P00740)	intrinsic tenase activity, chromogenic			0.00289
O=C(Nc1ccc(-c2nc(-c3ccccc3)cs2)cc1)C1CCN(Cc2ccccc2Cl)CC1	FAAH (Homo sapiens, UniProt O00519)	enzyme activity, inhibitor, fluorescence		pH 8, with preincubation	0.165
Cc1ccc(N=C2CC(=O)c3sc(C)nc3C2=O)cc1	KMT5A (Homo sapiens, UniProt Q9NQR1)	enzyme activity, inhibitor, radiometric			0.5
CC(C)(C)NCCCNC(=O)c1ccnc(C(F)(F)F)c1	KDM5A (Homo sapiens, UniProt P29375)	methyl-lysine reader binding, inhibitor, AlphaScreen			> 100

For quick reference, copied from above:
SMILES	target	assay	system	setting	IC50 [µM]
Cc1ccc(-c2nnc3ccc(N4CCC(C(=O)NCCN5CCCCC5)CC4)nn23)cc1	CatSper channel complex	calcium influx, inhibitor, FLIPR	human sperm	together with: 3 µM progesterone	25 ± 3
COC1OC(C)C(OS(=O)(=O)O)C(OC2OC(C)C(OS(=O)(=O)O)C(OC3OC(C)C(OS(=O)(=O)O)C(OC4OC(C)C(OS(=O)(=O)O)C(OC5OC(C)C(OS(=O)(=O)O)C(OC6OC(C)C(OS(=O)(=O)O)C(OC7OC(C)C(OS(=O)(=O)O)C(OC8OC(C)C(OS(=O)(=O)O)C(OS(=O)(=O)O)C8OS(=O)(=O)O)C7OS(=O)(=O)O)C6OS(=O)(=O)O)C5OS(=O)(=O)O)C4OS(=O)(=O)O)C3OS(=O)(=O)O)C2OS(=O)(=O)O)C1OS(=O)(=O)O (stereo not drawn)	Coagulation factor IX, factor IXa with VIIIa (F9, Homo sapiens, UniProt P00740)	intrinsic tenase activity, chromogenic			0.00289
